# Experimental data pooled from the literature.
# Numbered parts are unrelated; each lists some results of a single study.

# Series 1 — technique: universal PBM; molecule type: double-stranded DNA, one strand shown; matrix: in vitro; tested at: not given; direction: higher = stronger binding
# Target: Sal-like protein 4, full length isoform B (SALL4, Homo sapiens, UniProt Q9UJQ4-2, residues 1-616)
# Setting: 8-mer, flanks averaged, mean of replicates
# Target sequence (chain): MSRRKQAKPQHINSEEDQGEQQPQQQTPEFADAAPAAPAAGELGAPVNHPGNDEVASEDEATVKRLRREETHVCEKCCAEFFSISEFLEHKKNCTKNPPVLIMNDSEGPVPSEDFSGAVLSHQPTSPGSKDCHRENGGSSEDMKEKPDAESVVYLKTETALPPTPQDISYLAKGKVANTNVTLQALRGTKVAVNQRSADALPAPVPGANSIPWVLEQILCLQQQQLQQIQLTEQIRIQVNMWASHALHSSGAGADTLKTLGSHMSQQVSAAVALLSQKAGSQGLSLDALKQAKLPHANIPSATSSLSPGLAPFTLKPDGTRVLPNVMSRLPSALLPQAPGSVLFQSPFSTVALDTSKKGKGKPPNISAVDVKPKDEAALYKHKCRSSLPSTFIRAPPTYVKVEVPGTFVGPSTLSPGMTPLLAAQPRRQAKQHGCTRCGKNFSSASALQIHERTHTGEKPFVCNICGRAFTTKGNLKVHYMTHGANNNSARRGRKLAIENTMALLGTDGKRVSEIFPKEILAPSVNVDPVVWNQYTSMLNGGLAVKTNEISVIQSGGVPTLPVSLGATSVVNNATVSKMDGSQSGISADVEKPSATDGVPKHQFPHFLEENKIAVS
Oligonucleotide,E-score
GTCACAGA,0.00032
CTGCCCGA,-0.216
AAGCACTT,0.0366
CGGTCTGC,-0.336
ATCAACAC,0.105
GCATAGCA,0.0902

# Series 2 — technique: protein binding microarray; molecule type: double-stranded DNA, one strand shown; matrix: in vitro; tested at: not given; reference: not given; direction: higher = stronger binding
# Target: Histone acetyltransferase KAT6A, winged helix 2, GST fusion (KAT6A, Homo sapiens, UniProt Q92794, residues 85-181)
# Setting: 8-mer, flanks averaged, mean of 2 arrays, mostly near background
# Residues (chain): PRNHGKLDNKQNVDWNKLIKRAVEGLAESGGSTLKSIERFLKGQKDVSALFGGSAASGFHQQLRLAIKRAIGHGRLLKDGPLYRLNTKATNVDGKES
Oligonucleotide,E-score
CTTCTGCA,0.164
AGACAAAC,0.0248
AGGGAGGG,0.0929
GTGCAGTA,0.0378
CTTCCATA,-0.0956
TCACGTGA,-0.17
TGGGTCAA,0.0974
CGACAGGA,0.108
ATCCGTTG,-0.0193
ACAACGCG,-0.0382

# Series 3 — technique: protein-binding microarray; molecule type: double-stranded DNA, one strand shown; matrix: in vitro; tested at: 2200 nM top; setting: 60-bp whole probe; together with: salmon DNA 0.4 mg/ml; reference: random background probes; direction: higher = stronger binding; constant ends, left off below: GCCTAGCAC … GTCTTGATTCGCTTGACGCTGCTG
# Target: Interferon regulatory factor 7, full length, phosphomimetic (IRF7, Homo sapiens, UniProt Q92985, residues 1-503, S471D/S472D/S475D/S476D/S477D/S483D/S484D/S487D)
# Construct (chain): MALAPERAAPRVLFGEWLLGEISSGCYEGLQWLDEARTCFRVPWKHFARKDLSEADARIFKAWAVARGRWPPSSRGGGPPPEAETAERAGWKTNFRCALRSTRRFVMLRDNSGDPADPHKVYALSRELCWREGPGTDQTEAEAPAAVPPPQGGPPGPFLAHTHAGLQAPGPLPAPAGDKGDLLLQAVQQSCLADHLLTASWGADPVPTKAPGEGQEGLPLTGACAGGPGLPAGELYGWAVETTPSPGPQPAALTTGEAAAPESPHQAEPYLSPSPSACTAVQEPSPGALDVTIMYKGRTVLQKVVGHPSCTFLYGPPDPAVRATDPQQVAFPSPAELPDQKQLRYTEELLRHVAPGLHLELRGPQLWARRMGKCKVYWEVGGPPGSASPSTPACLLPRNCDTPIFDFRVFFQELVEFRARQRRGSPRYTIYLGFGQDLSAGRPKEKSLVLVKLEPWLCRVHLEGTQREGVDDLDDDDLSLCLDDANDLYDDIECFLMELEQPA
Oligonucleotide,fitted relative affinity [z-score]
TTAGATATCGGGTTTTGATTAGTGCTA,0.661
TTAGGTCTCAGACTGGGTTAGTGCTAG,-0.312
GACGGTTTCGGTTTGGGGACGTGCTAG,14.4
GACGGATTGGGACTGGGGACGTGCTAG,-0.255
TTTGCTCTGTGCATAGGCCTGTGCTAG,0.691
TCACTTTCCTTCTTGAAACTGTGCTAG,5.51

# Other studies, line by line
Molecule,target,test,system,setting,scale,endpoint,value
"PhoQ, residues 284 288 289 292 302 303 WVSSAF","PhoP, residues 12 14 15 18 19 GHCSL (Escherichia coli, UniProt P23836)","Sort-seq, measured: YFP reporter",E. coli,"PhoQ-PhoP variant library, together with: 10 µM Mg2+","reference: high Mg2+ state, higher = stronger signaling",fold induction,10.9
